Results collected from several papers.
Compare with care: the assays were run in different laboratories.
HDAC1: Histone deacetylase 1 (HDAC1, Homo sapiens, UniProt Q13547)
Chain of UniProt Q13547 (whole entry, looked up): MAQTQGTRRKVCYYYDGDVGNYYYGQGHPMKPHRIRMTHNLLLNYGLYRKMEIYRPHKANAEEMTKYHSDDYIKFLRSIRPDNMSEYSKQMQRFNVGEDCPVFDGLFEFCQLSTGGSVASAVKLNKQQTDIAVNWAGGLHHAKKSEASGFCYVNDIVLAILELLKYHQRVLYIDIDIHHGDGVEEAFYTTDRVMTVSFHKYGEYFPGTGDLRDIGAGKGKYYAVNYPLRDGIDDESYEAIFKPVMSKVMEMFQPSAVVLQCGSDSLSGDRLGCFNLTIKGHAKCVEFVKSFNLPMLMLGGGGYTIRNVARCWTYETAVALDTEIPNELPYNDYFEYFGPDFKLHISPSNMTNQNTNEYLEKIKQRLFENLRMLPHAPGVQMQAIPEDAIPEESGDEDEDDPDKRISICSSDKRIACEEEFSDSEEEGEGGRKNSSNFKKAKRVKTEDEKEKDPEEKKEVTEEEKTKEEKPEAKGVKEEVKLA
PPARG ligand-binding domain: Peroxisome proliferator-activated receptor gamma, ligand-binding domain (PPARG, Homo sapiens, UniProt P37231)
Chain of UniProt P37231 (whole entry, looked up): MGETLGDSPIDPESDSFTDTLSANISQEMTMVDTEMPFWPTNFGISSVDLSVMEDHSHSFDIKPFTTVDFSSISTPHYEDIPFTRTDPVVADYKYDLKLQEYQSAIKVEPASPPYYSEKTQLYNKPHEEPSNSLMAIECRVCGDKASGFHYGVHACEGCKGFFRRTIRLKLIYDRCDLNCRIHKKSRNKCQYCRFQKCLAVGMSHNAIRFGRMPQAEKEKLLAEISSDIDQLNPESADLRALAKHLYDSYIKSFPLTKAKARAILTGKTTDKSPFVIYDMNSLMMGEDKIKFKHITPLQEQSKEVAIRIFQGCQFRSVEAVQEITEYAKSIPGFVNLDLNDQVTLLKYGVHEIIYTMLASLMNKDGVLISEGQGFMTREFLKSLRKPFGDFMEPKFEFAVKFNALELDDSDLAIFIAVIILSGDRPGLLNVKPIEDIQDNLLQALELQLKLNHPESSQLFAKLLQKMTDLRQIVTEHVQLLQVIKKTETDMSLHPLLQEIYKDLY
Chain of UniProt O08914 (whole entry, looked up): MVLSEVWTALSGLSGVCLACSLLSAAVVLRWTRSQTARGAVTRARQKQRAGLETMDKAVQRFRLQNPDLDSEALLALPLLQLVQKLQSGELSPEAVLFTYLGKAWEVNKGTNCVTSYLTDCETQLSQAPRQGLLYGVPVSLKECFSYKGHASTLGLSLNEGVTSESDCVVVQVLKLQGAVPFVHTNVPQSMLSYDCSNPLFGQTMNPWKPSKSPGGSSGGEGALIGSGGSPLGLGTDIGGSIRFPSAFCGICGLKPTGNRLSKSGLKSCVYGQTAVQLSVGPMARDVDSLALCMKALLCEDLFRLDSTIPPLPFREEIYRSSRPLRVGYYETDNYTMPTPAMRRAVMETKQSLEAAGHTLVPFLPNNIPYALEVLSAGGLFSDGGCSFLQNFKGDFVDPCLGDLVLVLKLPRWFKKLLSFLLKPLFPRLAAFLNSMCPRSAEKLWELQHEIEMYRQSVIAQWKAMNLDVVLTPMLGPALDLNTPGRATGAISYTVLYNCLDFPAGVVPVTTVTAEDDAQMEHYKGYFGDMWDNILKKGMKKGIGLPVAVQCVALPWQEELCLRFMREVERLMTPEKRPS
Chain of UniProt Q09429 (whole entry, looked up): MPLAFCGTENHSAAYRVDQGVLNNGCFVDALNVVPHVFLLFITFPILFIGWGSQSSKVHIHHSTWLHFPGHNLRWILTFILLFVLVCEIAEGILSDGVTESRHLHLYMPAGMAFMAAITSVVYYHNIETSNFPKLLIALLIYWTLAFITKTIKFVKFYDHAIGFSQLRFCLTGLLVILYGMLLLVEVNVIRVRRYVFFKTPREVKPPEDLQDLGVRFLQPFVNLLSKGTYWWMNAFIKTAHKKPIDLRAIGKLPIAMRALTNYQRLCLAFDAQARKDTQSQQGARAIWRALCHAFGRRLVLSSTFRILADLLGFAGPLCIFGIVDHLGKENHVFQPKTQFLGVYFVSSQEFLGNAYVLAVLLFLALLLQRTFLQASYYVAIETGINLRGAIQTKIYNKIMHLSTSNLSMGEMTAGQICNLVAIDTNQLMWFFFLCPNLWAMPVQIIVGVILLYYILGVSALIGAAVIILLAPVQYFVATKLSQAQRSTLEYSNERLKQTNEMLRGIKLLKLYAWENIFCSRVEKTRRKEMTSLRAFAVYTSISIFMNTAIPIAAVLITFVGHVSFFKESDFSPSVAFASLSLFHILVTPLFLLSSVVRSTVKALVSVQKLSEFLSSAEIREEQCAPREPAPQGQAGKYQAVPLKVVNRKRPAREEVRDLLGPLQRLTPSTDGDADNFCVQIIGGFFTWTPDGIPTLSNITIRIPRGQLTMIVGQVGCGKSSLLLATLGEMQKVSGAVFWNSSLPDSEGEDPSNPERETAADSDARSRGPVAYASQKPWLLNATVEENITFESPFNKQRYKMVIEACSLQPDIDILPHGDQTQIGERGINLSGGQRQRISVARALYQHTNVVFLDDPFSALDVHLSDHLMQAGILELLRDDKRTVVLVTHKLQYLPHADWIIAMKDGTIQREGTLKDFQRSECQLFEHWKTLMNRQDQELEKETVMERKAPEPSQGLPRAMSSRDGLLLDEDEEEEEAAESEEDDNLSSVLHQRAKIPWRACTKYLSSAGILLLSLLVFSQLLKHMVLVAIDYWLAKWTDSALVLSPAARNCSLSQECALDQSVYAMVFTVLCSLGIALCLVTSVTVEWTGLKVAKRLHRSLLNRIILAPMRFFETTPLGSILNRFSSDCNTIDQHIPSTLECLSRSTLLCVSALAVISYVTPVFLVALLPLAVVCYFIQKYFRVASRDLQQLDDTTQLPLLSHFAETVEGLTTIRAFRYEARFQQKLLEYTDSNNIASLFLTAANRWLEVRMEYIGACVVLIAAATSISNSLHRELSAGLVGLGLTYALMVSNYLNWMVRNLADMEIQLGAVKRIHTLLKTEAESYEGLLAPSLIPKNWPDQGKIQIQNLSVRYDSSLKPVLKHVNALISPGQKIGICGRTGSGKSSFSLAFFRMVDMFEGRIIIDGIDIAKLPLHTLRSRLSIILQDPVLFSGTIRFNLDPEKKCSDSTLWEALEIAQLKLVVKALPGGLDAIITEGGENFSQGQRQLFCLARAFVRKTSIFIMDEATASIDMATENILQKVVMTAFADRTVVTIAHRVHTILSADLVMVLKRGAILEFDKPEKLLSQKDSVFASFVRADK
Chain of UniProt P0A988 (whole entry, looked up): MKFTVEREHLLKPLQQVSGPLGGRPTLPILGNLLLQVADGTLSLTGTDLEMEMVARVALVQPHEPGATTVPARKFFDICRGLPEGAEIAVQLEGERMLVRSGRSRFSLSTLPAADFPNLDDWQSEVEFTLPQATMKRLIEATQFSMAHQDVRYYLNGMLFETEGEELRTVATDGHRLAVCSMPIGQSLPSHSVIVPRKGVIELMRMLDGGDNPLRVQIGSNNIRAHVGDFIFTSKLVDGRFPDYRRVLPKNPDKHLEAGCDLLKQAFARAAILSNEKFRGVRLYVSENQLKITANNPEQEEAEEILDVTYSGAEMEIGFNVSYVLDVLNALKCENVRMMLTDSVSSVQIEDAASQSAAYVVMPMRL
Chain of UniProt Q8N6T7 (whole entry, looked up): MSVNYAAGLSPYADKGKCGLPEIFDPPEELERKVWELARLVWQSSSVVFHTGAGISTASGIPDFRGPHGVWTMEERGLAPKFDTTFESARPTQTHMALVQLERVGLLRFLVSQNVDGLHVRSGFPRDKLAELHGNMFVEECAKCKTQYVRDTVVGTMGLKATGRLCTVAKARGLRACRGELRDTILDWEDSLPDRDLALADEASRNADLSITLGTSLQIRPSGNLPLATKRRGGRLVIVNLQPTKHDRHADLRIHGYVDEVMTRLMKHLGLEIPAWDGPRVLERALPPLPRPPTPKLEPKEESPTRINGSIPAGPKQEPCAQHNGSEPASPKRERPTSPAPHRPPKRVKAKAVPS
Chain of UniProt P51677 (whole entry, looked up): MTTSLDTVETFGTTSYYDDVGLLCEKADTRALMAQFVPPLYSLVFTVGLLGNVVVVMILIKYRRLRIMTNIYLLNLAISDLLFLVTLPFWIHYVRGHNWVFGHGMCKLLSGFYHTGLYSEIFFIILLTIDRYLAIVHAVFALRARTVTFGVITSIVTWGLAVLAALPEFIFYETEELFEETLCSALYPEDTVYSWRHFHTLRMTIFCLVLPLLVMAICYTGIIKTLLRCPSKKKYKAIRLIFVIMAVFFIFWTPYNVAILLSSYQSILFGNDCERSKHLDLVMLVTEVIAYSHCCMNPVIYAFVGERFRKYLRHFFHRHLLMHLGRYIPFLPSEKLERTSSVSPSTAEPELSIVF
Chain of UniProt P07711 (whole entry, looked up): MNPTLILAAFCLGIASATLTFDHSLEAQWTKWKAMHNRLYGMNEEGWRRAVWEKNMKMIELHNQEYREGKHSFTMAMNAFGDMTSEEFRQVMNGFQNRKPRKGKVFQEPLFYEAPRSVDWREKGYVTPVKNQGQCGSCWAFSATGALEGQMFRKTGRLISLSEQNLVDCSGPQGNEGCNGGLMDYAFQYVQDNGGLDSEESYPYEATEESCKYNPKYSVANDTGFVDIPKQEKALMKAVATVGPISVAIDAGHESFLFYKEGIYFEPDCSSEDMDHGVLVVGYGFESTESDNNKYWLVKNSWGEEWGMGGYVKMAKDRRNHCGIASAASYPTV
Chain of UniProt P46734 (whole entry, looked up): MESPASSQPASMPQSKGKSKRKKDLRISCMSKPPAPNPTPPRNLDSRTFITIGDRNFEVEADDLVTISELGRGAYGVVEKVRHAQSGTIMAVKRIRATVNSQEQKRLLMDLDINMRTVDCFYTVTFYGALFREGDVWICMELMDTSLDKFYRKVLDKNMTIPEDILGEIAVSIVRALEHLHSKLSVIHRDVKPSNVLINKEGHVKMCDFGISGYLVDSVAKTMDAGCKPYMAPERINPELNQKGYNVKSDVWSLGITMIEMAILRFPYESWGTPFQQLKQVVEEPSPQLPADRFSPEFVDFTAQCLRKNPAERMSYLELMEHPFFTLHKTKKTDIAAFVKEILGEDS

CNC(=O)C[C@H](Cc1ccc(C#N)cc1)NC(=O)c1cc(-c2ccc(CN[C@H](C)c3ccc(C)cc3)o2)ccc1Cl — inhibition (SSTR4 (Homo sapiens, UniProt P31391); calcium signal, antagonist; 10 µM): 4%
Cc1cccc(O[C@H]2CCC[C@@H](C(C)CNCc3ccncc3)C2)c1 (relative stereo) — inhibition (MAP2K3 (Homo sapiens, UniProt P46734); enzyme activity, inhibitor; 10 µM): -4%
C=C(NC(=O)c1csc(-c2nc3c(cc2O)-c2nc(cs2)C(=O)NC(C(C)O)C(=O)NC(=C(C)OC)c2nc(cs2)C(=O)NC2c4nc(cs4)C(=O)NC(COC(=O)c4c5c6c(cccc6n4O)COC(=O)C(OC4CC(C)(O)C(N(C)C)C(C)O4)C2OC5)c2nc-3cs2)n1)C(N)=O (centres unmarked) — lung bacterial load (Streptococcus pneumoniae; -4, immunocompromised mice, lung; 32 mg/kg/day thrice daily, 24 h post-dose): 3.7 log10 CFU/lung
COc1ncc2nc(C)n(Cc3ncc(S(N)(=O)=O)cc3F)c2c1-c1ccccc1 — inhibition (SCN5A (Homo sapiens, UniProt Q14524); antagonist, cell-based; 10 µM): -1.31%
COc1ccc(C(=O)Nc2ccc(Nc3cc(C)nc(N4CCCC4)n3)cc2)cc1 — inhibition (Beta sliding clamp, with Pol III* (Escherichia coli, UniProt P0A988); clamp-dependent DNA synthesis, gel; 300 µM, pH 7.8, 37 °C, added: 4 nM primed ssDNA, 100 fmol Pol III*): 13%
O=C1CO[C@H](CNC(=O)C2(c3ccc(Cl)cc3)CC2)CN1C1Cc2ccccc2C1 — inhibition (CCR3 (Homo sapiens, UniProt P51677); β-arrestin recruitment, antagonist; 1 µM): -14%
CCCCCCCCCCCCNC(=S)NCCCC[C@H](NS(C)(=O)=O)C(=O)N[C@H](C)C(=O)N[C@@H](CCCNC(=N)N)C(N)=O — inhibition (SIRT6 (Homo sapiens, UniProt Q8N6T7); enzyme activity, inhibitor; 10 µM): 14%
COC1CN([C@H]2CC[C@H]([C@@]3(C)Oc4c(Cl)cc(C(=O)NCc5c(SC)cc(C)[nH]c5=O)c(C)c4O3)CC2)C1 — log2 fold change (RNA-seq, measured: RGS2 mouse homolog; mouse, HT-1376 xenograft, whole blood; dose not given; baseline: vehicle): 0.0327
COc1ccc(S(=O)(=O)N2CCc3ccccc3C2)cc1N1CCN(C(=O)c2ccc(F)cc2C(F)(F)F)CC1 — inhibition (Abcc8 (Rattus norvegicus, UniProt Q09429); radioligand binding, antagonist; 1 µM): 4%
CN(Cc1ccc(/C=C/C(=O)NO)cc1)CC12CC3CC(CC(C3)C1)C2 — inhibition (human NOP receptor; agonist radioligand binding; 0.05 µM): 5%
CCCCCCCCCCCCCCN(O)C(=O)CCCCC[C@@H]1NC(=O)[C@H]([C@@H](C)CC)NC(=O)[C@H](Cc2ccccc2C(F)(F)F)NC(=O)CCSCc2cccc(n2)CSCCCNC1=O — inhibition (HDAC1; 30 µM): 60%
O=C1c2sc(-c3ccc(N4CCC(CO)CC4)nc3F)nc2CCN1c1cccnc1 — inhibition (OPRD1 (Homo sapiens, UniProt P41143); ligand displacement, radioligand; 1 µM): 0%
C/C=C/C(=O)Nc1ccc2nc(NCCCCCN(C)C)nc(NCCCCCCN(C)C)c2c1 — inhibition (SUV39H1 (Homo sapiens, UniProt O43463); enzyme activity, inhibitor, radiometric; 50 µM): 65%
Cc1c(Cc2cccc(OC(C)(C)C(=O)O)c2)c2ccc(C(=O)N[C@@H](C)c3cccc(C4CC4)c3)cc2n1C — IC50 (PPARG ligand-binding domain; reporter gene, luciferase reporter; HEK293T, Gal4-PPARγ LBD): 1.35 µM
O=C(NO)c1cncc(OS(=O)(=O)Oc2ccccc2-c2ccccc2)c1 — inhibition (HDAC1; enzyme activity, inhibitor, fluorescence; 10 µM): 35%
CCN(CC)C(=O)n1ccnn1 — inhibition (Faah (Mus musculus, UniProt O08914); serine hydrolase activity, inhibitor, competitive gel-based ABPP; mouse T-cell proteome; 1 µM, 30 min, 37 °C): > 95%
C[Si](C)(C)C[C@@H](CN)CC(=O)O — inhibition (Interleukin-1 receptor type 1 (Il1r1, Mus musculus, UniProt P13504); binding, radioligand binding; 75 µM, added: iodinated interleukin-1 beta): 19%
Cc1cccc([C@H](C)NC(=O)c2ccc3c(Cc4cccc(OC(C)(C)C(=O)O)c4)c(C)n(C)c3c2)c1 — IC50 (PPARG ligand-binding domain; reporter gene, luciferase reporter; HEK293T, Gal4-PPARγ LBD): 8.3 µM
Cc1c(COc2cc(OCc3cccc(C#N)c3)c(CN3CCCC[C@H]3C(=O)O)cc2Cl)cccc1-c1cccc(OCCCCCC(=O)NO)c1 — inhibition (HDAC1; enzyme activity, inhibitor; 1 µM): 78%
CCn1cc(C(=O)O)c(=O)c2c(N)c(F)c(NC3CCCCC3)cc21 — inhibition (FAM20C (Homo sapiens, UniProt Q8IXL6); kinase activity; 0.1 µM, added: ATP at Km): 8.5%
Nc1ncc(-c2cc(-c3cnn(CC(F)(F)F)c3)ncc2F)nc1C(=O)NC1CNCC(F)C1 (centres unmarked) — remaining binding (ERK2; KINOMEscan competition binding; 1 µM; baseline: DMSO control): 96%
C=CC(=O)Nc1cccc(Cn2ncc3cnc(Nc4cnn(CCOC)c4)nc32)c1 — percent of control (ERK3 human; binding, KINOMEscan; 100 nM; lower = stronger binding): 94%
C=CCNC(=O)[C@H](CCc1ccccc1)NC(=O)[C@H](CC(=O)NCC(C)(C)C)NC(=O)CCc1ccccc1 — inhibition (Procathepsin L (CTSL, Homo sapiens, UniProt P07711); enzyme activity, inhibitor; 100 µM): 7%

Some of these lines once more:
CCCCCCCCCCCCCCN(O)C(=O)CCCCC[C@@H]1NC(=O)[C@H]([C@@H](C)CC)NC(=O)[C@H](Cc2ccccc2C(F)(F)F)NC(=O)CCSCc2cccc(n2)CSCCCNC1=O — inhibition (HDAC1; 30 µM): 60%
O=C1c2sc(-c3ccc(N4CCC(CO)CC4)nc3F)nc2CCN1c1cccnc1 — inhibition (OPRD1 (Homo sapiens, UniProt P41143); ligand displacement, radioligand; 1 µM): 0%
C/C=C/C(=O)Nc1ccc2nc(NCCCCCN(C)C)nc(NCCCCCCN(C)C)c2c1 — inhibition (SUV39H1 (Homo sapiens, UniProt O43463); enzyme activity, inhibitor, radiometric; 50 µM): 65%
Cc1c(Cc2cccc(OC(C)(C)C(=O)O)c2)c2ccc(C(=O)N[C@@H](C)c3cccc(C4CC4)c3)cc2n1C — IC50 (PPARG ligand-binding domain; reporter gene, luciferase reporter; HEK293T, Gal4-PPARγ LBD): 1.35 µM
